Measurements from different studies.
Numbered parts are unrelated; each lists some results of a single study. “And” joins repeats or separate records; there may be more than shown.
Sequence of UniProt P07550 (whole entry, looked up): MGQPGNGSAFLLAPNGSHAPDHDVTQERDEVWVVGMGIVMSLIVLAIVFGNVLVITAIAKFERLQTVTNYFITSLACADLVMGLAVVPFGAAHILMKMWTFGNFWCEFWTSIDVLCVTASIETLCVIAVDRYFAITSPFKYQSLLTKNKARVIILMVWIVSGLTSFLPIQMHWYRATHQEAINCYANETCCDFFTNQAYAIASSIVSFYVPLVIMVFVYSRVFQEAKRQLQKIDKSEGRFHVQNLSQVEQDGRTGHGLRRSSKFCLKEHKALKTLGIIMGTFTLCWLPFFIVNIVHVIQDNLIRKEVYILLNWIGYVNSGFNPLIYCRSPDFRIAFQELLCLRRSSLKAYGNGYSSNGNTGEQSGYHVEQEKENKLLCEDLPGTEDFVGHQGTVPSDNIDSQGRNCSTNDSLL
Sequence of UniProt P25100 (whole entry, looked up): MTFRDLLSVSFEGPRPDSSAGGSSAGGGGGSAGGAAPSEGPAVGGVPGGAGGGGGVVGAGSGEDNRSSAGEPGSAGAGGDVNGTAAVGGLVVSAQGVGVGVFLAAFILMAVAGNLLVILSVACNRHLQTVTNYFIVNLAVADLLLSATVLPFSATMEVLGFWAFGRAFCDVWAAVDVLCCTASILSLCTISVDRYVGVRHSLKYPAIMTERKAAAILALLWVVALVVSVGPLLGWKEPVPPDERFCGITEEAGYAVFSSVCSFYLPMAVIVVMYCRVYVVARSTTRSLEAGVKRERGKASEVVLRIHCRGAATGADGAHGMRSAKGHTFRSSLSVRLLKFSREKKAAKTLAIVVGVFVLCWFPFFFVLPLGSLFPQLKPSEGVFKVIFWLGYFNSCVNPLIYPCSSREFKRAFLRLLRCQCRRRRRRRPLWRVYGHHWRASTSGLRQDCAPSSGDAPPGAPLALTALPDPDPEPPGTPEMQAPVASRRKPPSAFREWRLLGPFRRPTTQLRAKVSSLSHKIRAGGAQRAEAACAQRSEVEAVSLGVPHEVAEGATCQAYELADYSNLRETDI
Sequence of UniProt P34969 (whole entry, looked up): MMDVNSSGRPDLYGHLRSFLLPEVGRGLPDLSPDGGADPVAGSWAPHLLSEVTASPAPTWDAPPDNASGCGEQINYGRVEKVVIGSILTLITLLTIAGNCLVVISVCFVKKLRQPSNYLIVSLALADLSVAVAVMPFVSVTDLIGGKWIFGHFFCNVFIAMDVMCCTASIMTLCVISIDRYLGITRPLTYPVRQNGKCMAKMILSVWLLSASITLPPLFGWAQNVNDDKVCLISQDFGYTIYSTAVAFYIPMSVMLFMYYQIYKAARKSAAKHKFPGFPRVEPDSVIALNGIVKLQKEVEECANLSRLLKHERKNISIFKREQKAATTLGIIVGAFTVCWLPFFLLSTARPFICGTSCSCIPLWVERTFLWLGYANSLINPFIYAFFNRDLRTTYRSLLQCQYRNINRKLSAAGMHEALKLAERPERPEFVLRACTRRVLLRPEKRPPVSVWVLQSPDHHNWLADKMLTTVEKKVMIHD
Sequence of UniProt P18825 (whole entry, looked up): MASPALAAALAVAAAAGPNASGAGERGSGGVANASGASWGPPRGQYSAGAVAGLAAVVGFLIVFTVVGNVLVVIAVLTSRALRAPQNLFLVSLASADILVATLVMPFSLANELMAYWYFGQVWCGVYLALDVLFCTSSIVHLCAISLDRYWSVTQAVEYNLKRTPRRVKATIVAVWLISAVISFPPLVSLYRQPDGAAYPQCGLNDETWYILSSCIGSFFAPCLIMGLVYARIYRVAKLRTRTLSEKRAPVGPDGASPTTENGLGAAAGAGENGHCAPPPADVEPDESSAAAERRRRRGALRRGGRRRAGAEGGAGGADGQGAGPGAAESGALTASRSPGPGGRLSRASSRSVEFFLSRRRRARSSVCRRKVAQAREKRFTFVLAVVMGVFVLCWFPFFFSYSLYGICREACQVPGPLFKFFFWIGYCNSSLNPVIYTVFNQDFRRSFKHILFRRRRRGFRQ
Sequence of UniProt P04049 (whole entry, looked up): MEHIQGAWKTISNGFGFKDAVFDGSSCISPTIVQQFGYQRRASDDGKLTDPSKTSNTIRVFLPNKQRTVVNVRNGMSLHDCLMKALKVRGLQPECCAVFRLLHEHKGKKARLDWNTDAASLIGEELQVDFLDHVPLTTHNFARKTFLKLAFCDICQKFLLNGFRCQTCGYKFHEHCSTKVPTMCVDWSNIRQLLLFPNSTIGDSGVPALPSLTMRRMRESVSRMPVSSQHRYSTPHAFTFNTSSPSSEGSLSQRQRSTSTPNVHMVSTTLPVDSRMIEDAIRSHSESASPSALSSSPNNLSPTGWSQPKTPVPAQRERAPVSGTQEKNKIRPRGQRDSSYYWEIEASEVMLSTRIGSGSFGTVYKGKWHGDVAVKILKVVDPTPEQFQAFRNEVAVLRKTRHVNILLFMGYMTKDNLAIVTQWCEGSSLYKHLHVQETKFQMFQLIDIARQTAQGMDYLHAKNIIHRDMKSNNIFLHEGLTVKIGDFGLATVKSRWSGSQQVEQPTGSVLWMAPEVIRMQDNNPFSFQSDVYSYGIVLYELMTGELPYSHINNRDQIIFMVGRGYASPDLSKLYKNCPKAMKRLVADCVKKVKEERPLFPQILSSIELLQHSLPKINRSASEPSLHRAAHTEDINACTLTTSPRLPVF
Sequence of UniProt Q9Y4K4 (whole entry, looked up): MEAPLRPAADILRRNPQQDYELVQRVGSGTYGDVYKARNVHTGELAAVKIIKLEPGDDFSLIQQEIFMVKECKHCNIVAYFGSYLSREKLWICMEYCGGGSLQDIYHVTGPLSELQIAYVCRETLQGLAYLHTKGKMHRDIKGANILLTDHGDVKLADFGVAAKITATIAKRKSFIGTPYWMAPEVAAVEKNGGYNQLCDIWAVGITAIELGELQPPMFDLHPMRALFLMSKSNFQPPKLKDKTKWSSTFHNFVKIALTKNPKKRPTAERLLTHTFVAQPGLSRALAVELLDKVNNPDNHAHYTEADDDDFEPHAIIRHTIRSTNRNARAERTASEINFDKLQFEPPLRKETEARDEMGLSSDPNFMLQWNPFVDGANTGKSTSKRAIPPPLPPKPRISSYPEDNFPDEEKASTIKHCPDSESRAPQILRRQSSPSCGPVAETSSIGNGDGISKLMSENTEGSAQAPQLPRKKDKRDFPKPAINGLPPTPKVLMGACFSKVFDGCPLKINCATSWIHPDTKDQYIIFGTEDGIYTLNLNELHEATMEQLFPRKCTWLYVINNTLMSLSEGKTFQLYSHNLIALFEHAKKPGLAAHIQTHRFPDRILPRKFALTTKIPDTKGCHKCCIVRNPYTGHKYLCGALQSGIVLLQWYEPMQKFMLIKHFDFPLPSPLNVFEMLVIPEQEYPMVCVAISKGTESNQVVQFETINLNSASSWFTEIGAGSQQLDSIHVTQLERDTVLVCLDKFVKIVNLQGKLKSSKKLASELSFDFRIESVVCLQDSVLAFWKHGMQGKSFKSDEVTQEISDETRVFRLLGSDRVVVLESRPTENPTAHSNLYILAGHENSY

Sample 1 — host: human; matrix: microsomes or S9; tested at: 2 µM; time: 0.5 h
SMILES	remaining compound
N#Cc1cnc(NCC2CCN(CC(O)c3ccccc3)CC2)cn1 (stereo not shown)	> 100%
O=C(Nn1cnc2ccccc21)c1nc(-c2ccc(F)cc2)n2c1CCCCC2	58.3%
C=C(C)[C@@H]1CCC2=CC(=O)C[C@@H](C)[C@]2(C)C1	4.68%
O=C(c1ccccc1)c1ccccc1Nc1cccc2c1N(c1ncccn1)CC2	0.408%
C1=NN(c2ccccc2)C2c3ccccc3OCC12 (stereo not shown)	62.7%

Sample 2 — cell line: HEK293; method: CellTiter-Glo; reference: vehicle
SMILES: CC(C)C(=O)N1CCN(c2nc(OC[C@@H]3CCCN3C)nc3c2CCN(c2cccc4cccc(Cl)c24)C3)C[C@@H]1CC#N
tested at	viability
1.25 µM	98.8% and 97.2% and 92.2%
625 nM	102% and 92.9% and 96.8%
156 nM	96.9% and 100% and 98.7%
2.5 µM	80.3% and 84.2% and 90.8%

Sample 3 — observed: enzyme activity; mode: inhibitor; tested at: 0.5 µM; reference: control
Target: ALK tyrosine kinase receptor (ALK, Homo sapiens, UniProt Q9UM73)
Sequence of UniProt Q9UM73 (whole entry, looked up): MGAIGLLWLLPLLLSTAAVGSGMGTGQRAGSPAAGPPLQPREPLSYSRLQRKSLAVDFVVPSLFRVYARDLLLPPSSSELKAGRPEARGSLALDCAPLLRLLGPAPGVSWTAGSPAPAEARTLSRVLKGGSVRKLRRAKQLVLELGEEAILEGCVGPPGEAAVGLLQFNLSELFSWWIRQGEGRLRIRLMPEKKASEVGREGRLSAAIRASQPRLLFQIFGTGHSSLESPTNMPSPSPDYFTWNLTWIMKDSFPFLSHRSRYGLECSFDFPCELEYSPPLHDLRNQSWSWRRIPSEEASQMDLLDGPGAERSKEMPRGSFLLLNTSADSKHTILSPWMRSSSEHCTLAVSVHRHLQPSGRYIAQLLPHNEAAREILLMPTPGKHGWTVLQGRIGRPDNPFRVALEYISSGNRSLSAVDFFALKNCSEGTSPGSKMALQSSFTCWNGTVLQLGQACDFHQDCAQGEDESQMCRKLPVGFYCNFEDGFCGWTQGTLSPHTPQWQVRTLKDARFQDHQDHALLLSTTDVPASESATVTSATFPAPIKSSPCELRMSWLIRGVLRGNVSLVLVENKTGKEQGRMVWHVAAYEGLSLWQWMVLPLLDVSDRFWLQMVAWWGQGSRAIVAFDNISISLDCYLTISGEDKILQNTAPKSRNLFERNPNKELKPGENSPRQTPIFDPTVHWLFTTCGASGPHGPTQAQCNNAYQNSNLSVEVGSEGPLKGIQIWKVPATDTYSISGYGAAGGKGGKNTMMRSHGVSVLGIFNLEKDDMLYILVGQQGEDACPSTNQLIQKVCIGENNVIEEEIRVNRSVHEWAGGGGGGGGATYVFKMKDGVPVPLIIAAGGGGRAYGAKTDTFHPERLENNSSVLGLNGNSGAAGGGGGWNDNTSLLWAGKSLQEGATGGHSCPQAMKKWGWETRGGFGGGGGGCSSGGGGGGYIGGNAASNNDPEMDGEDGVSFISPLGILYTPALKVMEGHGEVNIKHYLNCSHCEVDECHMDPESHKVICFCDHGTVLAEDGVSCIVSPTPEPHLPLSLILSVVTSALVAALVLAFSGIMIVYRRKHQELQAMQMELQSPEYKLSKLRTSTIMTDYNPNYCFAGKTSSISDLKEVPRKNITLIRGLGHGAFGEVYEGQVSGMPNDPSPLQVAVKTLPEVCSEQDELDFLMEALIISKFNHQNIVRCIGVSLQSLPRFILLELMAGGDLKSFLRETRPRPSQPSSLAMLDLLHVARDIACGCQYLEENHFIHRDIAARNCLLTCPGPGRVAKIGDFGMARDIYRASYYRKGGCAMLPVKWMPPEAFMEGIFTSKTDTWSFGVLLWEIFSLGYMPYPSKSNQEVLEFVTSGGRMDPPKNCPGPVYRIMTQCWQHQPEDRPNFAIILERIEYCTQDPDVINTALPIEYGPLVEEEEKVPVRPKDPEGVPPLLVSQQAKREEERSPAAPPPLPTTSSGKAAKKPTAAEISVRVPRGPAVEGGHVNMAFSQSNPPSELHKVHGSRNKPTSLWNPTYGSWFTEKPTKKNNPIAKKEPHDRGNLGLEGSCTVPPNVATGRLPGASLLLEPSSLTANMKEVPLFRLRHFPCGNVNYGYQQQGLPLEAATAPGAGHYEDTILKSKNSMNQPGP
Compound	remaining activity [%]
Cn1sc(=O)n(Cc2ccccc2)c1=O	94.1
Nc1[nH]nc2nc3ccccc3nc12	96.7
N#CC(C#N)=C(N)/C(C#N)=C/c1ccc(O)cc1	109
O=C1NC(=O)C(c2cn(CCCn3ccnc3)c3ccccc23)=C1Nc1ccccc1	97.7
COc1cc2nccc(Oc3ccc(NC(=S)NC(=O)c4ccccc4C)cc3)c2cc1OC	80.8
COc1cc2ncnc(Nc3ccc(Oc4ccccc4)cc3)c2cc1OC	109
C#Cc1cccc(Nc2ncnc3cc(OCCOC)c(OCCOC)cc23)c1	86.7
Cc1cccc(-c2[nH]c(C(C)(C)C)nc2-c2ccc3c(c2)OCO3)n1	103
CNC(=O)c1cc(Oc2ccc(NC(=O)Nc3ccc(Cl)c(C(F)(F)F)c3)cc2)ccn1	97.3
O=c1c2ccccc2[nH]c(=S)n1CCN1CCC(=C(c2ccc(F)cc2)c2ccc(F)cc2)CC1	104
CCOC(=O)c1c(C)[nH]c(/C=C2\C(=O)Nc3ccccc32)c1C	79.2
Nc1ccc2ncnc(NCCc3ccc(Oc4ccccc4)cc3)c2c1	108
Cn1c2ccccc2c2c3c(c4c5ccccc5n(CCC#N)c4c21)CNC3=O	12.2
O=C1NC(=O)C(c2cn(CCCO)c3ncccc23)=C1c1cnccn1	105
Nc1ncnc2n[nH]c(Nc3ccc(F)cc3)c12	88.9

Sample 4 — observed: binding; method: competition with immobilised ligand; tested at: 1 µM
Structure (SMILES): C[C@H]1CC[C@H](n2c3cnccc3c3cnc(Nc4ccc5c(n4)CCN(C(=O)CO)C5)nc32)CC1
target	remaining binding
RAF1 (Homo sapiens, UniProt P04049)	100%
MAP3K13 (Homo sapiens, UniProt O43283)	100%
MAP4K5 (Homo sapiens, UniProt Q9Y4K4)	100%

Sample 5 — observed: cell-free assay; tested at: 10 µM
SMILES: O=C(c1ccc(F)cc1)N1CC(COc2ccc(Br)cc2)(C(=O)O)C1
target	inhibition [%]
DRD3 (Homo sapiens, UniProt P35462)	3.89
ADRA2C (Homo sapiens, UniProt P18825)	11.3
HTR6 (Homo sapiens, UniProt P50406)	-2.64
HRH1 (Homo sapiens, UniProt P35367)	-4.38
ADRB2 (Homo sapiens, UniProt P07550)	-15
ADRA1D (Homo sapiens, UniProt P25100)	5
HTR7 (Homo sapiens, UniProt P34969)	-12

Excerpt of the above (sample 1):
SMILES	remaining compound
C1=NN(c2ccccc2)C2c3ccccc3OCC12 (stereo not shown)	62.7%
O=C(c1ccccc1)c1ccccc1Nc1cccc2c1N(c1ncccn1)CC2	0.408%
O=C(Nn1cnc2ccccc21)c1nc(-c2ccc(F)cc2)n2c1CCCCC2	58.3%
